{"data": "Assay results from different studies", "UCHL1": "Ubiquitin carboxyl-terminal hydrolase isozyme L1 (UCHL1, Homo sapiens, UniProt P09936)", "note": "Protocols differ between the studies behind these lines. Values joined by “and” are separate records of one study, mostly repeats; a detail may differ. ± marks the error that the study gave.", "UniProt P09936, sequence (whole entry, looked up)": "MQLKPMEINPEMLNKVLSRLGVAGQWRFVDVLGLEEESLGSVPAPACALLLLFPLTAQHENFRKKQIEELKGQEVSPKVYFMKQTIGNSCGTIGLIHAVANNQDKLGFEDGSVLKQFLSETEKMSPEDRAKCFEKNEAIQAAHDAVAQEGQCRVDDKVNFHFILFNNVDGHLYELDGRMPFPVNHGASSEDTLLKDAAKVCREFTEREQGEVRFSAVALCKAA"}
{"SMILES": "COc1ccc(NC(=O)c2c(Nc3ccccc3)sc(C(=O)NN=Cc3ccc(OC)c(O)c3)c2NC(C)=O)cc1", "tested on": "HepG2", "assay": "annexin V-FITC/PI", "conditions": "concentration not given", "endpoint": "necrotic cells", "value": "2.06%"}
{"SMILES": "CC(=O)c1nn(-c2ccc(Cl)cc2)/c(=N/N=C(\\C)c2ccc(NC(=O)c3ccc(Cl)cc3)cc2)s1", "tested on": "HepG2", "conditions": "10 µM", "endpoint": "viability", "value": "7.4%"}
{"SMILES": "N#CC(=Cc1cccc(Cl)c1Cl)C(=O)NCCc1ccccc1", "tested on": "UCHL1", "assay": "covalent, intact protein LC-MS", "conditions": "12.5 µM", "endpoint": "labelling", "value": "36.4%"}
{"SMILES": "CC(=O)c1nn(-c2ccc(C)cc2)/c(=N/N=C(\\C)c2ccc(NC(=O)c3ccccc3)cc2)s1", "tested on": "HepG2", "assay": "MTT", "conditions": "0.078 µM", "endpoint": "cytotoxicity", "value": "26.4%"}
{"SMILES": "COc1ccc(NC(=O)c2c(Nc3ccccc3)sc(C#N)c2NC(=O)CNc2ccc(Cl)cc2)cc1", "tested on": "HepG2", "assay": "flow cytometry", "conditions": "IC50, 24 h", "endpoint": "cells in G2/M", "value": "21.2 ± 3.12%"}
{"SMILES": "CCOC(=O)/C=C\\C(=O)OCC", "tested on": "HepG2", "assay": "refers to: glutathione", "conditions": "24 h, representative mode", "endpoint": "point of departure", "value": "10.5 µM"}
{"SMILES": "CCOC(=O)c1nn(-c2cccc(Cl)c2)/c(=N/N=C(\\C)c2ccc(NC(=O)c3ccccc3)cc2)s1", "tested on": "HepG2", "assay": "MTT", "conditions": "10 µM", "endpoint": "cytotoxicity", "value": "97%"}
{"SMILES": "COc1ccc(-n2nc(C(C)=O)s/c2=N\\N=C(/C)c2ccc(NC(=O)c3ccccc3)cc2)cc1", "tested on": "HepG2", "conditions": "10 µM", "endpoint": "viability", "value": "3.13%"}
{"SMILES": "CN(CCOc1ccc(CC2SC(=O)NC2=O)cc1)c1ccccn1 (stereo not drawn)", "tested on": "HepG2", "assay": "extracellular flux, refers to: reserve respiratory capacity", "conditions": "6 h, distribution mode 2", "endpoint": "point of departure", "value": "1.2 µM"}
{"SMILES": "Nc1ccn([C@H]2CC[C@@H](CO)O2)c(=O)n1", "tested on": "HepG2", "assay": "qPCR", "conditions": "2.0 µM, 10 days, 1", "scale": "reference: untreated", "endpoint": "mitochondrial DNA content", "value": "10 ± 3.8%"}
{"SMILES": "O=C(O)Cc1ccccc1Nc1c(Cl)cccc1Cl", "tested on": "HepG2", "assay": "high content imaging, refers to: nuclear size", "conditions": "24 h, distribution mode 1", "endpoint": "point of departure", "value": "209 µM and 138 µM"}
{"SMILES": "COc1cc(C=C(C#N)C(=O)NC(C)C)sn1", "tested on": "UCHL1", "assay": "covalent, intact protein LC-MS", "conditions": "12.5 µM", "endpoint": "labelling", "value": "9.76%"}
